Experimental data gathered from unrelated publications.
Numbered parts are unrelated; each lists some results of a single study.

Study 1 — method: RNA Bind-n-Seq; form: RNA; matrix: in vitro; tested at: 365 nM; baseline: no-protein control; direction: higher = stronger binding
Target: RNA binding protein fox-1 homolog 2, RRM domain, GST-SBP tag (RBFOX2, Homo sapiens, UniProt O43251-10, residues 100-194)
Setting: natural RNA segment, single round, ends assumed
Construct (chain): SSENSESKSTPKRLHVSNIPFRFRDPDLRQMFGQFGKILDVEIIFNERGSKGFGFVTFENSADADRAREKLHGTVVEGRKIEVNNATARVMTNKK
| Strand | RBNS enrichment (R) |
| --- | --- |
| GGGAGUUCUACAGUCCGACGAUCCAAUACGUUUGUGCAGAAUCUCUAUGUAUAUUCUAUUUUAUUAAAUUAAUUGAAUCUAGUAUAUGCGGGAUGUACGACAUUUUGUGACUGAAGAGACUUGUUUCCUUCUAUGGAAUUCUCGGGUGCCAA | 0.331 |
| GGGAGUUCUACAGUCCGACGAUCGUCUUUCUCUCCUCUCCCUCCAUCCCUCAAAAGAUCUUUAUGCAUUUCCCACUACUCCCUUACUGUCUUUUAGCAUUCAGAGAAAAAGCCAACUUGCUUAAAGAGGAAUCUGGAAUUCUCGGGUGCCAA | 0.917 |
| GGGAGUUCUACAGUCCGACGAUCGCUGUAUCCUAGUAUCCCAGUGAAACUCUGAGUUGGAAUGAUUCCCUCUGGUCCUGCAUAUGCAGAGGACGGAGCAGGCUCAGCCCCCUGGAAGAUGAGCUCAAGGGGAGUGGAAUUCUCGGGUGCCAA | 0.474 |
| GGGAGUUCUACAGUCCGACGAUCUCAGACCGUAUUACAACAAAAACAAACGUCCCUUUCGUUCCUUGUGAGAUUUUCAUCCAAAGCCACACUCCUAGCCUAAGGCACUUCAUCUUUACGAUAUAAAAUGAUGGUGGAAUUCUCGGGUGCCAA | 0.51 |
| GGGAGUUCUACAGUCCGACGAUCCUAUGGACUGAGCCGGCCACUCUCUGGCCGAAGUGGCCGCAGGCUGUGCCCCCGAGCUGCCCCCACCCCCUCACAGGGUCCCUCAGAUUAUAGGUGCCCAGGCUGAGGUGUGGAAUUCUCGGGUGCCAA | 0.405 |
| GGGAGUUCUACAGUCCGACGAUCUGGUCCUUGUGCCCUCCCCACUCAUCCCUGGUCUGGUCCCCUGUUGCCUAUAGCCCUUUACCCUGAGCACCACCCCAACAGACUGGGGACCAGCCCCCUCGCCUGCCUGUUGGAAUUCUCGGGUGCCAA | 1.16 |
| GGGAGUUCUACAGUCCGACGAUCUUUCCCUCAAUGCAUGUAAUUAAACACUUGUGGAAAUCGCUUUAACAAUAAACAGGAAAUGAGCCUAGUAUUGUUCAUUUCUUAUUUCCUUUAGAGUUUAUGACUGAGGGUGGAAUUCUCGGGUGCCAA | 24.6 |
| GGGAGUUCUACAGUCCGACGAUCAAUCUUACCUACCUCCUGGGGGGGGGGGAGUUCUGAGAACGAAGUCAUUCUUAGUGUUCAGGUGCUAAAGGUUGUUCUCUUUGGGAACAGAGUGACAAGAAACUGGCUAGUGGAAUUCUCGGGUGCCAA | 0.718 |
| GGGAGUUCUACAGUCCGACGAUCCUGAGGAAACCAUGUUCAGAAGAGAAUAAAUGGACCGCCUUCAGGCAAGGGGGGAGCACUGCCUUCAGGCAAGGGGGGAGCACUGCCUUCAGGCAAGAGGGAGAGUGGGAUGGAAUUCUCGGGUGCCAA | 0.409 |
| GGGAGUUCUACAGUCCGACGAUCGUUUAUUUCUGUGGCCUGAGAAGGAAGGGACCUCCACGACAGGUGGGCUGGGUGCGAUCGCCGGCUGUUUGGCAUGUUCCCACCGGGAGUGCCGGGCAGGAGCAUGGGGUUGGAAUUCUCGGGUGCCAA | 1.64 |
| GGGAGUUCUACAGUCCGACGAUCGAAUGGUGGGGUUCUAGCUUGGUCACUUUCAUUUCUUGCCAUCAUAAAAACUAGUAGGCUGUGGAGUGCGCUUCCUGUUUGUGUCAUCUGGUCGUAGAACCUUUUCCAAAUGGAAUUCUCGGGUGCCAA | 0.482 |
| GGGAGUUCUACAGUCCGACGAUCUUUACCAUAAUGAGUCUUAAGUAGGUUCAUGAUCUACAUUGGGGCCUGGGAUUAUUUUUUUAAUUUUAAGUUUGCAUGAGAUAGCCUAAUAAAUGGAGGUGGGGCCAGGCUGGAAUUCUCGGGUGCCAA | 6.03 |

Study 2 — method: protein-binding microarray; form: double-stranded DNA, one strand shown; matrix: in vitro; tested at: 2540 nM top; setting: 60-bp whole probe; together with: salmon DNA 0.4 mg/ml; baseline: random background probes; direction: higher = stronger binding; constant ends, left off below: GCCTAGCAC … GTCTTGATTCGCTTGACGCTGCTG
Target: Interferon regulatory factor 3, full length, phosphomimetic (IRF3, Homo sapiens, UniProt Q14653, residues 1-427, S386D/S396D/S398D/S402D/T404D/S405D)
Target sequence (chain): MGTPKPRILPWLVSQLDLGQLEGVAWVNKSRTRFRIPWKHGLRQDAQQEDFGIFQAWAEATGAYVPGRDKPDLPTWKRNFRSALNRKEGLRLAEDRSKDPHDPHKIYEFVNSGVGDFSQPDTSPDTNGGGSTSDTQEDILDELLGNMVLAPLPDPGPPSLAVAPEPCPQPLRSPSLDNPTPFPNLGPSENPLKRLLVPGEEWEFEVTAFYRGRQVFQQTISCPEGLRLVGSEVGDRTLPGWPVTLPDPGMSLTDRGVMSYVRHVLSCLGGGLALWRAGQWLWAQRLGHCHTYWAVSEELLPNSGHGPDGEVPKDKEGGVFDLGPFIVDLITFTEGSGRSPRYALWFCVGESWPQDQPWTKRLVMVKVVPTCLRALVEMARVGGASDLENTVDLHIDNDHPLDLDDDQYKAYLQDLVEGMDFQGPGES
| Strand | fitted relative affinity [z-score] |
| --- | --- |
| TTAGGTATCGACACTGGGTCAGTGCTA | 0.196 |
| CCATTTTGGTTTTCTCTATTGGTGCTA | 2.56 |
| TTACATTTCAGTCTCGATTAGTGCTAG | 2.48 |
| TTAGGACTTGGTATCGGTTAGTGCTAG | 1.41 |
| TTGGATCTCAGTTTCGATTAGTGCTAG | 3.26 |
| TTAGGGCTCGGTATCGGTTAGTGCTAG | 1.49 |
| CATTTTCTTTAACTCATTCTGTGCTAG | 3.7 |
| TTAGGTATCAGACTGGGTTAGTGCTAG | 1.19 |
| TTAGGTATCGGGACTGGATTAGTGCTA | 1.56 |
| CAGCCTTTGCCTCATCTTGCAGTGCTA | 0.00756 |
| GACGGACTGGACTTCCGGGACGTGCTA | -0.486 |
| GACGGTTCCCTTTTCCTGAGGTGCTAG | 6.27 |
| TTAGGTATCGACTTTCCGTTAGTGCTA | 1.78 |
| GACGGTATCGACGATCGGGACGTGCTA | 0.0806 |
| GACGATTGCGGGTATCGAGACGTGCTA | -0.0388 |
| GACGATATCAGTATCGCGACGTGCTAG | 0.938 |
| GACGATTTCAGTATCGAGTCGTGCTAG | 2.57 |
| TGTTTTAATTTTCTCTTTGGGTGCTAG | 3.05 |
| GACGGGCTGGGTCTCGGGACGTGCTAG | -1.11 |
| TTAGGTTTCGGGTTTCGGTCAGTGCTA | 5.99 |
| TCATCTTTTCTGTTGTCACTGTGCTAG | 1.88 |
| TTAGGTCTCGGTTTCTGTTAGTGCTAG | 3.37 |
| AGTTTTCTCATTCGTCATTTCGTGCTA | 2.4 |
| GGGAATTTAGAAAATGGAAATGTGCTA | -0.105 |

Study 3 — method: RNA Bind-n-Seq; form: RNA; matrix: in vitro; tested at: 1 µM; setting: whole 134-nt RNA, ends assumed; together with: 150 mM KCl; baseline: input library; direction: higher = stronger binding
Target: Ras GTPase-activating protein-binding protein 1, C-terminal RGG region (G3BP1, Homo sapiens, UniProt Q13283)
Chain of UniProt Q13283 (whole entry, looked up): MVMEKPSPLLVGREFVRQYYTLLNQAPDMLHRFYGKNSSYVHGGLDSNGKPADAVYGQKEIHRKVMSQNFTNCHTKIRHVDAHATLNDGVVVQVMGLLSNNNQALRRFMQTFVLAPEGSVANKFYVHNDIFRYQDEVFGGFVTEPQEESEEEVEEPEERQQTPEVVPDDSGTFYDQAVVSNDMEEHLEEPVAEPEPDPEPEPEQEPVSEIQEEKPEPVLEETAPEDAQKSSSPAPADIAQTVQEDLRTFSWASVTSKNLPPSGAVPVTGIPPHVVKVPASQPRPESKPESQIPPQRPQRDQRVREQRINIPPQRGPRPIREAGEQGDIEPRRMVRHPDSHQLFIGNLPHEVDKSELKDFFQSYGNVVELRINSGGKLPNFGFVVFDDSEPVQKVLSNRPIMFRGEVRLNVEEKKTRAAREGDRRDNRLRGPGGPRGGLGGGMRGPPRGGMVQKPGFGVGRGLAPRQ
| Strand | log2 enrichment |
| --- | --- |
| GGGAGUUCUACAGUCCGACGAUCUGGCCCUGGUGGCAUGCGGGGAGAAAGAGGUGGCCUCAUGGAUCGUGGUGGUCCCGGUGGAAUGUUCAGAGGUGGCCGUGGUGGAGACAGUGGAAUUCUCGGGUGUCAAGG | 2.6 |
| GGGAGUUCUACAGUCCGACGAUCUCCUGUGCUACACAUCGUAUGUACCGAAUCAAACCCCCAAACCCCCAAACCCCCCCAAAAAAGUAUUAUGUUACGCCGUUCGGAUCUGCAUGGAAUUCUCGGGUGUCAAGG | -0.679 |
| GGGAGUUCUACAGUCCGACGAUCUGCUGUGCAGCGGCAUCGGCCCACUGUGGUGGAAUGUCUACGGGAAACUGAUGCCUCCCUCAGCCGGUGAGCAGUGAUAGAGGGGACAGGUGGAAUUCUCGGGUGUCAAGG | -2.39 |
| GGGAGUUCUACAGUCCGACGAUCUGGCCCUGGUGGCAUGCGGGGAGGAAGAGGUGGCCUCAUGGAUAGUGGUGGUCCCGGUGGAAUGUUCAGAGGUGGCCGUGGUGGAGACAGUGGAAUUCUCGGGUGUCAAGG | 2.36 |
| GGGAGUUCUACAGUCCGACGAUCUGUGCUACACAUCGUAUGUACCGAAUCGGGGUUUUUUUGGGGUUUUUUUGGGGUUUUUUUGGGAAAGUAUUAUGUUACGCCGUUCGGAUCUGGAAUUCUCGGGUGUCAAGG | -0.667 |
| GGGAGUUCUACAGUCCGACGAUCUAACUUUAUAGGAGGAUCUGAUGGAUAUGGCAGUGGACGUGGAUUUGGGGAUGGCUAUAAUGGGUAUGGAGGAGGACCUGGAGGUGGCAAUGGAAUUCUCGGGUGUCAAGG | -1.4 |
| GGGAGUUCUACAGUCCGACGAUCUCAAGUCCUGUGCUACACAUCGUAUGUACCGAAUCGGGCCGGGGCCGGGGCCGGGAAAGUAUUAUGUUACGCCGUUCGGAUCUGCACUUCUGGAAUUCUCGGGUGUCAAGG | -1.25 |
| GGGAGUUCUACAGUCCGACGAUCCUGUGCUACACAUCGUAUGUACCGAAUCGGGUUUUUUUGGGGUUUUUUUGGGUUUUUUUGGGAAAGUAUUAUGUUACGCCGUUCGGAUCUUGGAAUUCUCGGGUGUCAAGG | -0.987 |
| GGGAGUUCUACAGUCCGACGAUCCCUGUGCUACACAUCGUAUGUACCGAAUCGGCCCCCCGGGCCCCCCGGGGCCCCCCGGGGAAAGUAUUAUGUUACGCCGUUCGGAUCUGCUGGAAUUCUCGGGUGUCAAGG | -2.33 |
| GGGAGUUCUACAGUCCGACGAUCUCCUGUGCUACACAUCGUAUGUACCGAAUCGGUUUUUUGGGGUUUUUUGGUUUUUUGGGGAAAGUAUUAUGUUACGCCGUUCGGAUCUGCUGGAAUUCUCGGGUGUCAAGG | -1.03 |

Study 4 — method: aptamer microarray, sandwich; form: DNA with 2'F-ANA; matrix: in vitro; tested at: 200 nM; together with: Cy3 exosite-II aptamer, 400 nM; direction: higher = stronger binding; strand: GGTTGGTGTGGTTGG
Target: Prothrombin, mature alpha-thrombin (F2, Homo sapiens, UniProt P00734)
Setting: whole 15-mer aptamer, many near background
| Modification | mean fluorescence intensity [a.u.] |
| --- | --- |
| 2'F-ANA at 2 3 4 5 8 10 12 14 | 48.8 |
| 2'F-ANA at 1 2 4 5 6 9 13 14 | 64.5 |
| 2'F-ANA at 1 4 10 14 15 | 43.3 |
| 2'F-ANA at 4 10 11 14 | 82 |
| 2'F-ANA at 1 2 3 5 6 8 11 12 13 15 | 80.9 |
| 2'F-ANA at 3 5 8 10 11 12 15 | 69.3 |
| 2'F-ANA at 5 11 12 13 14 15 | 48.7 |
| 2'F-ANA at 1 2 7 8 11 12 14 | 68.3 |
| 2'F-ANA at 2 3 6 8 9 10 11 13 15 | 244 |
| 2'F-ANA at 2 3 6 7 10 11 15 | 304 |
| 2'F-ANA at 1 2 4 6 7 9 12 | 240 |
| 2'F-ANA at 1 7 9 10 14 15 | 47.9 |
| 2'F-ANA at 1 2 5 7 8 10 11 12 13 14 | 103 |
| 2'F-ANA at 1 2 5 7 9 11 12 | 99 |
| 2'F-ANA at 2 5 6 8 9 11 12 | 133 |
| 2'F-ANA at 1 5 6 8 10 12 13 | 137 |
| 2'F-ANA at 1 2 3 4 5 6 7 8 11 13 14 15 | 68.1 |
| 2'F-ANA at 1 6 8 10 12 | 66.4 |
| 2'F-ANA at 3 4 5 7 9 14 | 63.3 |
| 2'F-ANA at 3 7 9 11 12 | 1170 |
| 2'F-ANA at 1 2 6 7 8 9 10 12 13 15 | 72.4 |

Repeated from above (study 4):
| Modification | mean fluorescence intensity [a.u.] |
| --- | --- |
| 2'F-ANA at 1 4 10 14 15 | 43.3 |
| 2'F-ANA at 4 10 11 14 | 82 |
| 2'F-ANA at 1 2 3 5 6 8 11 12 13 15 | 80.9 |
| 2'F-ANA at 3 5 8 10 11 12 15 | 69.3 |
| 2'F-ANA at 5 11 12 13 14 15 | 48.7 |
| 2'F-ANA at 1 2 7 8 11 12 14 | 68.3 |
| 2'F-ANA at 2 3 6 8 9 10 11 13 15 | 244 |
| 2'F-ANA at 2 3 6 7 10 11 15 | 304 |
| 2'F-ANA at 1 2 4 6 7 9 12 | 240 |
| 2'F-ANA at 1 7 9 10 14 15 | 47.9 |
| 2'F-ANA at 1 2 5 7 8 10 11 12 13 14 | 103 |
